Experimental data gathered from unrelated publications.
Lines come from different studies, so protocols differ. Numbers after ± are the reported error.

Compound | assay | test system | setting | endpoint | result
O=C(CN1CCN(CC(=O)NCP(=O)([O-])[O-])CCN(CC(=O)NCP(=O)([O-])[O-])CCN(CC(=O)NCP(=O)([O-])[O-])CC1)NCP(=O)([O-])[O-].[Gd+3] |  | Sprague-Dawley rats, blood | intravenous, 35 µmol/kg, two-compartment model, together with: GdDTPA 68 µmol/kg co-injected | distribution half-life alpha | 3.37 min
O=C(O)/C=C\c1ccc2occc2c1O[C@@H]1O[C@H](CO)[C@@H](O)[C@H](O)[C@H]1O |  | rat, plasma | oral, 500 mg/kg Eu + 217 mg/kg Pc extract, dosed as combined Eu and Pc extracts | Tmax | 2.83 ± 1.89 h
CCCCCCCCCCCCCCCC(=O)N[C@@H](CCC(=O)NCCOCCOCCC(=O)NCCOCCOCCC(=O)NCCCC[C@H](NC(=O)[C@H](CC(=O)O)NC(=O)[C@H](CC(C)C)NC(=O)[C@H](Cc1ccc(O)cc1)NC(=O)[C@H](CCCCN)NC(=O)[C@H](CO)NC(=O)[C@H](Cc1ccc(O)cc1)NC(=O)[C@H](CC(=O)O)NC(=O)[C@H](CO)NC(=O)[C@@H](NC(=O)[C@H](Cc1ccccc1)NC(=O)[C@@H](NC(=O)CNC(=O)[C@H](CCC(N)=O)NC(=O)[C@@H](CO)NC(=O)[C@@H](N)Cc1c[nH]cn1)[C@@H](C)O)[C@@H](C)O)C(=O)N[C@@H](CCCNC(=N)N)C(=O)N[C@@H](CCCNC(=N)N)C(=O)N[C@@H](C)C(=O)N[C@@H](CCC(N)=O)C(=O)N[C@@H](CC(=O)O)C(=O)N[C@@H](Cc1ccccc1)C(=O)N[C@H](C(=O)N[C@@H](CCC(N)=O)C(=O)N[C@@H](Cc1c[nH]c2ccccc12)C(=O)N[C@@H](CC(C)C)C(=O)N[C@@H](CC(C)C)C(=O)N[C@@H](CC(N)=O)C(=O)N[C@H](C(=O)NCC(=O)NCC(=O)N1CCC[C@H]1C(=O)N[C@@H](CO)C(=O)N[C@@H](CO)C(=O)NCC(=O)N[C@@H](C)C(=O)N1CCC[C@H]1C(=O)N1CCC[C@H]1C(=O)N1CCC[C@H]1C(=O)N[C@@H](CO)C(N)=O)[C@@H](C)O)C(C)C)C(=O)O |  | rhesus monkey, female, plasma | subcutaneous, 60 µg/kg, day 1, toxicokinetics, mean | AUC(0-t) | 565 ng·h/mL
CCN(CC)CCOc1ccc(-c2nnn(Cc3ccc(OC)cc3)c2N)cc1 |  | Caco-2 |  | Papp A→B | 2.61 ×10⁻⁶ cm/s
CC[C@H](C)[C@H](NC(=O)[C@H](CCCCN)NC(=O)CNC(=O)[C@H](CC(C)C)NC(=O)[C@H](Cc1ccccc1)NC(=O)[C@H](CCCCN)NC(=O)[C@H](CO)NC(=O)[C@H](Cc1ccccc1)NC(=O)[C@H](Cc1c[nH]c2ccccc12)NC(=O)[C@H](CCC(N)=O)NC(=O)[C@@H](NC(=O)[C@H](Cc1ccccc1)NC(=O)CCCCCNC(=O)CN1CCN(CC(=O)O)CCN(CC(=O)O)CCN(CC(=O)O)CC1)C(C)C)C(=O)N[C@@H](CCC(=O)O)C(=O)N1CCC[C@H]1C(=O)N[C@@H](CC(=O)O)C(=O)N[C@H](C(=O)N[C@@H](CO)C(=O)N[C@@H](CCC(N)=O)C(=O)N[C@H](C(=O)N[C@@H](CCC(N)=O)C(=O)N[C@@H](CC(=O)O)C(=O)N1CCC[C@H]1C(=O)N[C@@H](CC(N)=O)C(=O)N[C@@H](CC(=O)O)C(=O)N[C@@H](CCC(N)=O)C(=O)N[C@@H](Cc1ccc(O)cc1)C(=O)N[C@@H](CCC(=O)O)C(=O)N1CCC[C@H]1C(=O)N[C@@H](Cc1ccccc1)C(=O)O)C(C)C)C(C)C [copper-64 labelled] |  | C57BL/6 mice, brain | vehicle, intratracheal instillation | tissue uptake | 0.11 ± 0.02 %ID/g
O=C1NC2(CC2)COc2ncc(F)cc2[C@H]2COCCN2c2ccn3ncc1c3n2 |  | Sprague-Dawley rat, female, serum | oral, 10 mg/kg/day, 4 weeks daily, end of recovery period | potassium | 3.93 ± 0.14 mmol/L
CN1Cc2cc(Cl)ccc2-n2c(nnc2C2CCN(c3cccc(F)n3)CC2)C1 | mass spectrometry | male Sprague-Dawley rat, brain | intravenous, 0.03 mg/kg, 1 h, single dose | concentration | 1.07 ng/mL
CC(C)C[C@@H](NC(=O)[C@@H](CCCNC(=N)N)NC(=O)[C@@H](Cc1c[nH]cn1)NC(=O)[C@@H](Cc1c[nH]c2ccccc12)NC(=O)[C@@H](Cc1c[nH]cn1)NC(=O)[C@@H](Cc1ccccc1)NC(=O)[C@H](NC(=O)[C@@H](Cc1ccc(O)cc1)NC(=O)CNC(=O)CNC(=O)CCOCCOCCOCCNC(=O)CN1CCN(CC(=O)O)CCN(CC(=O)O)CC1)[C@H](C)O)C(=O)N[C@H](CC(N)=O)C(=O)N1CCC[C@@H]1C(=O)O [gallium-68 labelled] | OLINDA/EXM | adult female human, LLI wall | extrapolated from C57BL/6 mice | organ absorbed dose | 0.0136 ± 0.0001 mSv/MBq

Excerpt of the above:
Compound | assay | test system | setting | endpoint | result
CCCCCCCCCCCCCCCC(=O)N[C@@H](CCC(=O)NCCOCCOCCC(=O)NCCOCCOCCC(=O)NCCCC[C@H](NC(=O)[C@H](CC(=O)O)NC(=O)[C@H](CC(C)C)NC(=O)[C@H](Cc1ccc(O)cc1)NC(=O)[C@H](CCCCN)NC(=O)[C@H](CO)NC(=O)[C@H](Cc1ccc(O)cc1)NC(=O)[C@H](CC(=O)O)NC(=O)[C@H](CO)NC(=O)[C@@H](NC(=O)[C@H](Cc1ccccc1)NC(=O)[C@@H](NC(=O)CNC(=O)[C@H](CCC(N)=O)NC(=O)[C@@H](CO)NC(=O)[C@@H](N)Cc1c[nH]cn1)[C@@H](C)O)[C@@H](C)O)C(=O)N[C@@H](CCCNC(=N)N)C(=O)N[C@@H](CCCNC(=N)N)C(=O)N[C@@H](C)C(=O)N[C@@H](CCC(N)=O)C(=O)N[C@@H](CC(=O)O)C(=O)N[C@@H](Cc1ccccc1)C(=O)N[C@H](C(=O)N[C@@H](CCC(N)=O)C(=O)N[C@@H](Cc1c[nH]c2ccccc12)C(=O)N[C@@H](CC(C)C)C(=O)N[C@@H](CC(C)C)C(=O)N[C@@H](CC(N)=O)C(=O)N[C@H](C(=O)NCC(=O)NCC(=O)N1CCC[C@H]1C(=O)N[C@@H](CO)C(=O)N[C@@H](CO)C(=O)NCC(=O)N[C@@H](C)C(=O)N1CCC[C@H]1C(=O)N1CCC[C@H]1C(=O)N1CCC[C@H]1C(=O)N[C@@H](CO)C(N)=O)[C@@H](C)O)C(C)C)C(=O)O |  | rhesus monkey, female, plasma | subcutaneous, 60 µg/kg, day 1, toxicokinetics, mean | AUC(0-t) | 565 ng·h/mL
